# Measured values from different studies.
# Each numbered part is a random draw from the data of one study; scales do not carry over between parts.
# Chain of UniProt P18089 (whole entry, looked up): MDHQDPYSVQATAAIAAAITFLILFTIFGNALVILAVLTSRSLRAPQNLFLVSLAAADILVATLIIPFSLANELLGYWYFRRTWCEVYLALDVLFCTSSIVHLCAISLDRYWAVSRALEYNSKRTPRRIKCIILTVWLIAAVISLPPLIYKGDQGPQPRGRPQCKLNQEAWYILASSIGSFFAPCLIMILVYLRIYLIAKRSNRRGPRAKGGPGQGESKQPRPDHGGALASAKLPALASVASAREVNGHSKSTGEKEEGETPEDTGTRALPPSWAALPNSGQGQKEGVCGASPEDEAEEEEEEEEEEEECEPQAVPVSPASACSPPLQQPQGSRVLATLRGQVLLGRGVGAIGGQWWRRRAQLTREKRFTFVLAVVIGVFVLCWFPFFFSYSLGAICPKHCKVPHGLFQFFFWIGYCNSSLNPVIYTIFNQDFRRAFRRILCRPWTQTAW
# Chain of UniProt P08173 (whole entry, looked up): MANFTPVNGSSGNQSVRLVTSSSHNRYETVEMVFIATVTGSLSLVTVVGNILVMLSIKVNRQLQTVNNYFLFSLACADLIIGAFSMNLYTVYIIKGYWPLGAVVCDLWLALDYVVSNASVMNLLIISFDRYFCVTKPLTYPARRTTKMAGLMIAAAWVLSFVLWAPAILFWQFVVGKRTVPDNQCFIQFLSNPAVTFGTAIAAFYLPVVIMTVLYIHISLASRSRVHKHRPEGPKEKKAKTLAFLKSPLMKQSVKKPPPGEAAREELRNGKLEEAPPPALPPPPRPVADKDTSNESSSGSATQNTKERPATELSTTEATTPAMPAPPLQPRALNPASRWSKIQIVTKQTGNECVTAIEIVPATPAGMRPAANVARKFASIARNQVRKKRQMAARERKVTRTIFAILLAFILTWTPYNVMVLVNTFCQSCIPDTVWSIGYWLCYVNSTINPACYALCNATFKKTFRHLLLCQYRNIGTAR
# Chain of UniProt P21728 (whole entry, looked up): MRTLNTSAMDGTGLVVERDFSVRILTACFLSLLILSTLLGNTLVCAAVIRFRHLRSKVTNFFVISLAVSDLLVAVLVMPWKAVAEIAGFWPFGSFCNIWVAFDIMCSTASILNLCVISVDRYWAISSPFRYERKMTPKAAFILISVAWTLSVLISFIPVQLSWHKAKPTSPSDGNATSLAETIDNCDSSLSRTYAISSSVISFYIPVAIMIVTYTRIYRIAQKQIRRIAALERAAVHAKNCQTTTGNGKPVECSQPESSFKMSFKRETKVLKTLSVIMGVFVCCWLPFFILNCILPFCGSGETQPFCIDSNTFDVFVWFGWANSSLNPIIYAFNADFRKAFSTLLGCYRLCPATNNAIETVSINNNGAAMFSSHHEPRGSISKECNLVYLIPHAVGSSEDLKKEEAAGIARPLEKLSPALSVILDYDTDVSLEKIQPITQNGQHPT
# Chain of UniProt P28566 (whole entry, looked up): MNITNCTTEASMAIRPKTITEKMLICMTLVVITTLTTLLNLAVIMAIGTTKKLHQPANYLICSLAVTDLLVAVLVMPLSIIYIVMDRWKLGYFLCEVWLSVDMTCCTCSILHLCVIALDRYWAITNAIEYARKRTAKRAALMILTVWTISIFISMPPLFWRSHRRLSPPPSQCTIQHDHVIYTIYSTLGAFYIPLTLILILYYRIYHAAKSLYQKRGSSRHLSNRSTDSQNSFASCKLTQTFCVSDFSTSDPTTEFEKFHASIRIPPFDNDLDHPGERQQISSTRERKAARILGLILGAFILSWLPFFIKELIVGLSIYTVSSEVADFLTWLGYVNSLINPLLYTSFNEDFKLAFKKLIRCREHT
# Chain of UniProt P35348 (whole entry, looked up): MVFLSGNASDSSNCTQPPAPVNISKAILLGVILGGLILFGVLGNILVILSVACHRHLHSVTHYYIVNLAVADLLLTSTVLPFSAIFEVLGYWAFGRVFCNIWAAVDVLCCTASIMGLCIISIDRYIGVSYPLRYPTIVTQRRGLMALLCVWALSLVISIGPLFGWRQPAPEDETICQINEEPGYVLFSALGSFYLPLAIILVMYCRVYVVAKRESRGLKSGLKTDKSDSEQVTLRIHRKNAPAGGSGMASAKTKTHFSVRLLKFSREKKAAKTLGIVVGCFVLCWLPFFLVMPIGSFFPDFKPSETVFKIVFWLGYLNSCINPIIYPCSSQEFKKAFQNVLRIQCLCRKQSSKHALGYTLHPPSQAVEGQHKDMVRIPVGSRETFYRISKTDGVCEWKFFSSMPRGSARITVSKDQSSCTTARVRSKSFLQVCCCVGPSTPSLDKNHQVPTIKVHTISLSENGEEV
# Chain of UniProt Q9Y5N1 (whole entry, looked up): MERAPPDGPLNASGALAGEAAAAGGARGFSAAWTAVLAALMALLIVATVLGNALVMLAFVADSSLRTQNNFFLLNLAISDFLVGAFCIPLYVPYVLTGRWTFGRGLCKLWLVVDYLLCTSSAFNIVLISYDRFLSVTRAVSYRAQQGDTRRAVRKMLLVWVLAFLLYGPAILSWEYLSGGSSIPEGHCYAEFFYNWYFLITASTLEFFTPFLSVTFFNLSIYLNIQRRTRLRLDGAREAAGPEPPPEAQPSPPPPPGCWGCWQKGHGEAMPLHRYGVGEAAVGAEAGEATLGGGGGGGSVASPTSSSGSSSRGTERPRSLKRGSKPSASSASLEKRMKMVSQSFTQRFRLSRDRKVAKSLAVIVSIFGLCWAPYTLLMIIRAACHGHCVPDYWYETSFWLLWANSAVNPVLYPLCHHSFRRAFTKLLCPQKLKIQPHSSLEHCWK
# Chain of UniProt P28221 (whole entry, looked up): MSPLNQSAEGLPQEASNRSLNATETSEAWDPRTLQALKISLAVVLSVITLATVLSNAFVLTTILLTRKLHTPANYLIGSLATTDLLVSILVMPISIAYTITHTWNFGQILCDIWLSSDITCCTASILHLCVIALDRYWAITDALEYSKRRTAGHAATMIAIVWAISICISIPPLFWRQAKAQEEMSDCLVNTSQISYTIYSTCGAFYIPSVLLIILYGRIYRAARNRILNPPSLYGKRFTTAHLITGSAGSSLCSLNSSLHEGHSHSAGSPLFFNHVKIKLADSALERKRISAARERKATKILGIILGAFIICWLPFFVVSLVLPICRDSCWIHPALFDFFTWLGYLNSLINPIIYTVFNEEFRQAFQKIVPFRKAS
# Chain of UniProt P25021 (whole entry, looked up): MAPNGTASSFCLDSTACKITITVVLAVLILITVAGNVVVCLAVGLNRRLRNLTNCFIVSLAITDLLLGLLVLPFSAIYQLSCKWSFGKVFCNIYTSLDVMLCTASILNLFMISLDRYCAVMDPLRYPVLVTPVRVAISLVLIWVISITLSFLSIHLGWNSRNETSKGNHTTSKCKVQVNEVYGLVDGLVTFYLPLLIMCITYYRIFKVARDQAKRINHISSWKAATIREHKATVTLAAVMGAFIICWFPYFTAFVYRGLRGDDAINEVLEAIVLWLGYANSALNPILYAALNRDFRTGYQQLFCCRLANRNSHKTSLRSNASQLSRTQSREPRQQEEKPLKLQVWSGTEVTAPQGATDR

# Series 1
# Target: Calcium/calmodulin-dependent protein kinase type II subunit alpha (CAMK2A, Homo sapiens, UniProt Q9UQM7)
# Chain of UniProt Q9UQM7 (whole entry, looked up): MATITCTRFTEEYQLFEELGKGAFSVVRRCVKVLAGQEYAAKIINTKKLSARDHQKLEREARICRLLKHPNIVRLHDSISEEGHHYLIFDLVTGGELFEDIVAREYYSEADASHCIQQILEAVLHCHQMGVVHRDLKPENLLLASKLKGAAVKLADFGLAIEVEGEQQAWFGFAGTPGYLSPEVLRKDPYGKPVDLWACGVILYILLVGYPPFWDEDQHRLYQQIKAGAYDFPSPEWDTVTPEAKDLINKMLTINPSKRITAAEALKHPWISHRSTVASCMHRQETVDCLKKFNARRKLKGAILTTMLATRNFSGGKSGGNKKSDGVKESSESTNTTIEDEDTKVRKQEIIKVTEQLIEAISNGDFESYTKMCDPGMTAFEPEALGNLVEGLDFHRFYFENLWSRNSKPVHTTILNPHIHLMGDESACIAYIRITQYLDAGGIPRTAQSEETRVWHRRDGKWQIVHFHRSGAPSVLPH
# Observed: enzyme activity
# Action: inhibitor
# Concentration: 10 µM
SMILES,inhibition [%]
C[C@@H](O)[C@H](O)[C@H](O)[C@@H](O)C=O,-44
Cc1ccccc1OCC(O)CO (stereo not shown),-10
CC(=O)N[C@@H](CC(=O)O)C(=O)O,12
CCC(C)c1nccnc1OC (stereo not shown),-55
C[C@H](Cc1cc2c(c(C(N)=O)c1)N(CCCO)CC2)NCCOc1ccccc1OCC(F)(F)F,-1
C[C@@H]1O[C@@H](O[C@H]2[C@H](Oc3cc(O)c4c(c3)O[C@H](c3ccc(O)cc3)CC4=O)O[C@H](CO)[C@@H](O)[C@@H]2O)[C@H](O)[C@H](O)[C@H]1O,2
O=C1N[C@@H](Cc2c[nH]c3ccccc23)C(=O)N2CCC[C@@H]12,-14
O=C1CCc2ccc(OCCCCN3CCN(c4cccc(Cl)c4Cl)CC3)cc2N1,-4
COc1ccc2c(c1OC)O[C@H]1c3ccc(O[C@@H]4O[C@H](CO)[C@@H](O)[C@H](O)[C@H]4O)cc3OC[C@@H]21,2
COc1cc(O)c2c(c1)oc(=O)c1c3cc(O)c(O)cc3oc21,19

# Series 2
# Target: Platelet-derived growth factor receptor beta (PDGFRB, Homo sapiens, UniProt P09619)
# Chain of UniProt P09619 (whole entry, looked up): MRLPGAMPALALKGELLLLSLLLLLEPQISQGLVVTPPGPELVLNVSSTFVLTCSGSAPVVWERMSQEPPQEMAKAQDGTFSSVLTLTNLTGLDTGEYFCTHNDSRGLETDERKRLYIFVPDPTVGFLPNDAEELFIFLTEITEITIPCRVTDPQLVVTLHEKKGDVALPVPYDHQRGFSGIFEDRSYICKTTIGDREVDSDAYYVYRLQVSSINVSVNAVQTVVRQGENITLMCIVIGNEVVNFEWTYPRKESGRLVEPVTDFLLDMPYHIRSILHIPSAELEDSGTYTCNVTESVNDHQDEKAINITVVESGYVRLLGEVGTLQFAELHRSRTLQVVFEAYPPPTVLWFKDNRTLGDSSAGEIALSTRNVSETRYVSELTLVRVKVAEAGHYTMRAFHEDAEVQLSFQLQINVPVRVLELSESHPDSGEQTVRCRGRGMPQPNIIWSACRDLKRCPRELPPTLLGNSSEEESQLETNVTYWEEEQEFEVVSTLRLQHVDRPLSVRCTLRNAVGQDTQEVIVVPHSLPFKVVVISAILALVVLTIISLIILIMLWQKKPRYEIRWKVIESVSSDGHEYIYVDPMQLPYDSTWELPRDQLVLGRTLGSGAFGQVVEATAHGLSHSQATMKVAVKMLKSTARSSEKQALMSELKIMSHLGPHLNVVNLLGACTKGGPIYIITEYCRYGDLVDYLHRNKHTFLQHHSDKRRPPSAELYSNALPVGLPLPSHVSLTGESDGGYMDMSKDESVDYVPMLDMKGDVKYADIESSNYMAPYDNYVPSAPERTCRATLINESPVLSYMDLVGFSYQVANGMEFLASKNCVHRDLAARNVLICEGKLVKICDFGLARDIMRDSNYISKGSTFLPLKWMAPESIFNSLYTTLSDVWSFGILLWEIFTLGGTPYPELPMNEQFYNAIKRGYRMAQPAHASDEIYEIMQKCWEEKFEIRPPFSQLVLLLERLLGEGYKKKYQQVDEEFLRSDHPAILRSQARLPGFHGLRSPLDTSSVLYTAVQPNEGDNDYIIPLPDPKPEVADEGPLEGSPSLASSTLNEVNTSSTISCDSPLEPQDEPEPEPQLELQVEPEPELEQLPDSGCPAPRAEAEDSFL
# Observed: enzyme activity
# Action: inhibitor
# Concentration: 0.5 µM
# Baseline: control
Compound,remaining activity
CCCCc1c(-c2ccc(O)cc2)[nH]c2nccnc12,91.4%
O=C(c1ccccc1)c1ccc(N2CCOCC2)cc1O,96.5%
O=Nc1c(-c2c(O)[nH]c3ccccc23)[nH]c2ccccc12,72.6%
O=c1c(-c2ccc(F)cc2)c(-c2ccncc2)[nH]n1-c1ccc(Cl)cc1,101%
c1cc(-c2cnn3cc(-c4ccc(OCCN5CCCCC5)cc4)cnc23)ccn1,20.4%
NC(=O)c1cccc(-c2cc(Nc3ccc(OC(F)(F)F)cc3)ncn2)c1,94.8%
FC(F)(F)c1ccc(/C=C/c2nc(COc3ccc(CCCCn4ccnn4)cc3)co2)cc1,98.1%
NC(=O)c1ccc(-c2nc(-c3ccc4c(c3)OCCO4)c(-c3ccccn3)[nH]2)cc1,99.3%
O=C1c2ccccc2-c2nc3nnnn3nc21,11.3%
CCN(CC)CCCCN1c2ccccc2Oc2ccc(Cl)cc21,103%
N#CC(c1ccnc(NCCc2cccnc2)n1)c1nc2ccccc2s1 (stereo not shown),103%
O=C(O)/C=C/c1cc(Br)c(Br)c(Br)c1Br,96%
Clc1ccc(Nc2nnc(Cc3ccncc3)c3ccccc23)cc1,65.6%
CNc1cc2c(Nc3cccc(Br)c3)ncnc2cn1,86.4%
Nc1nc(Nc2ccc(S(N)(=O)=O)cc2)nn1C(=S)Nc1c(F)cccc1F,45.6%
CC(C)n1cnc2c(Nc3cccc(Cl)c3)nc(NCCO)nc21,94.7%
N#C/C(=C(/N)SC1C=CC=CC1)c1cccc(C(O)c2ccncc2)c1 (stereo not shown),101%
C[C@@H](N)[C@H]1CC[C@H](C(=O)Nc2ccncc2)CC1,98.4%
O=C1NC(=O)/C(=C/c2ccc3c(c2)OC(F)(F)O3)S1,97.4%

# Series 3
# SMILES: CC(C)n1cnc(-c2ccc(F)cc2)c1-c1ncc(C(=O)Nc2ccc(N3CCN(C)CC3)cc2)[nH]1
# Method: phase 2a trial
# Species: idiopathic pulmonary fibrosis patients
test,conditions,adverse event incidence [%]
item: hydroxybutyrate dehydrogenase increased,"dose not given, grade 4, all arms pooled",0
item: infection,"30 mg once daily, grade 5",0
item: chronic gastritis,"30 mg once daily, grade 4",0
item: ventricular extrasystoles,"60 mg once daily, grade 2",0
item: synovitis,"30 mg once daily, grade 4",0
item: general and administration site disorders,"30 mg once daily, grade 3",0
item: ventricular extrasystoles,"60 mg once daily, grade 1",0
item: drug eruption,"30 mg once daily, grade 4",0
item: appendicitis,"30 mg once daily, grade 5",0
item: chronic gastritis,"30 mg once daily, grade 5",0
item: ventricular extrasystoles,"30 mg once daily, grade 4",0
item: QRS axis abnormal,"30 mg once daily, grade 3",0
item: carotid intima-media thickening,"30 mg once daily, grade 3",0
item: gingivitis,"30 mg once daily, grade 4",0
item: liver injury,"60 mg once daily, grade 5",0
item: gingivitis,"dose not given, grade 4, all arms pooled",0
item: immunoglobulins increased,"30 mg once daily, grade 1",0
item: synovitis,"60 mg once daily, grade 3",0

# Series 4
# Structure (SMILES): CC(=O)C1=C(C)N(c2cccc(C(F)(F)F)c2)C(=O)N[C@H]1c1ccc(C#N)nc1
# Concentration: 10 µM
target,test,inhibition [%]
"HTR1E (Homo sapiens, UniProt P28566)",cell-free assay,-20.9
"ADRA2B (Homo sapiens, UniProt P18089)",ligand displacement,11.8
"HTR1D (Homo sapiens, UniProt P28221)",cell-free assay,-16.4
"CHRM4 (Homo sapiens, UniProt P08173)",ligand displacement,2.88
"HRH2 (Homo sapiens, UniProt P25021)",ligand displacement,3.4
"DRD1 (Homo sapiens, UniProt P21728)",ligand displacement,-12.6
"ADRA1A (Homo sapiens, UniProt P35348)",ligand displacement,-5.26
"HRH3 (Homo sapiens, UniProt Q9Y5N1)",ligand displacement,-11.2
"ADRB1 (Homo sapiens, UniProt P08588)",ligand displacement,8.09
"ADRB3 (Homo sapiens, UniProt P13945)",ligand displacement,17.2
"DRD3 (Homo sapiens, UniProt P35462)",ligand displacement,-6.43

# Repeated from above (series 4):
target,test,inhibition [%]
"ADRA2B (Homo sapiens, UniProt P18089)",ligand displacement,11.8
"HTR1D (Homo sapiens, UniProt P28221)",cell-free assay,-16.4
"CHRM4 (Homo sapiens, UniProt P08173)",ligand displacement,2.88
